Assay results gathered from unrelated publications.
Each line is one published result; not all experiments were run side by side.
Alpha-carbonic anhydrase: Alpha-carbonic anhydrase (Enterococcus faecium, UniProt Q3XYE8)
UniProt Q70CQ1, sequence (whole entry, looked up): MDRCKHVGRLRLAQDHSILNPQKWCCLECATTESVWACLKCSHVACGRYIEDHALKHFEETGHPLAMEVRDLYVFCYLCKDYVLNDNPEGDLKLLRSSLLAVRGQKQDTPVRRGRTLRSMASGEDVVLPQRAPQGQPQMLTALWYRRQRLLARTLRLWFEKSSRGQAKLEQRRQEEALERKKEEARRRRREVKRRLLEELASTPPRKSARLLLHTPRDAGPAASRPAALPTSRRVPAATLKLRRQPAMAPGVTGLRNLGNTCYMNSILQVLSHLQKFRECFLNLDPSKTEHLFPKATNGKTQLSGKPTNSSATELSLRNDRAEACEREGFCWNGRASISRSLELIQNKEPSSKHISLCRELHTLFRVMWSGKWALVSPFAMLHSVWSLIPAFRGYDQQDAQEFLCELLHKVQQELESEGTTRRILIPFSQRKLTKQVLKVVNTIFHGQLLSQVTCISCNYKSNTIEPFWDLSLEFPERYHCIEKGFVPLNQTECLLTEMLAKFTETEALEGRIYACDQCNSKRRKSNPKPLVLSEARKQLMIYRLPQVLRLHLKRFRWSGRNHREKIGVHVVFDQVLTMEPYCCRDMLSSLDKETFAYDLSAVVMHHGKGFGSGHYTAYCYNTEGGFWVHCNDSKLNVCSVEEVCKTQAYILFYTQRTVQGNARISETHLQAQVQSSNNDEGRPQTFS
UniProt Q53GS9, sequence (whole entry, looked up): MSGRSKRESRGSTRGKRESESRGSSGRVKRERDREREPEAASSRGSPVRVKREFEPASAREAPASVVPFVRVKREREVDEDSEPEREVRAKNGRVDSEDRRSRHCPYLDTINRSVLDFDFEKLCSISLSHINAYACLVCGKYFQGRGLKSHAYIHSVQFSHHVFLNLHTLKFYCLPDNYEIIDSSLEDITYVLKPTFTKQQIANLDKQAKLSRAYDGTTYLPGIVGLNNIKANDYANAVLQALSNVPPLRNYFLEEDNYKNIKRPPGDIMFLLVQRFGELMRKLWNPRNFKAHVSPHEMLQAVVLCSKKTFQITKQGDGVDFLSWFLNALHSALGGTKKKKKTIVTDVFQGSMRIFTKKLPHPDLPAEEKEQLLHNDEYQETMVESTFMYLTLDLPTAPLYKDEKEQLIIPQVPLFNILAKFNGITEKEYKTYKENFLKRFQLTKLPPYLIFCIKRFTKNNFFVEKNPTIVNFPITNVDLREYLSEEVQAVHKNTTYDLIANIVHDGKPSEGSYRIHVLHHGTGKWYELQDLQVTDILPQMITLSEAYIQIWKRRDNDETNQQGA

| SMILES | tested on | test | test system | conditions | scale | endpoint | value |
| --- | --- | --- | --- | --- | --- | --- | --- |
| CNC(=O)c1cc(Oc2ccc(NC(=O)Nc3cc(C(C)(C)C)nn3-c3ccc4ncccc4c3)c(F)c2)ccn1 | NLRP3 inflammasome (mouse) |  | mouse BMDM | 10 µM |  | inhibition | 50.7% |
| COc1cc2oc(=O)cc(C)c2cc1CCC(=O)O | Ubiquitin carboxyl-terminal hydrolase 39, ZnF-UBD domain (Homo sapiens, UniProt Q53GS9) |  |  |  |  | Kd | > 1000 µM |
| NS(=O)(=O)c1nnc(NC(=O)C2CCCC3(CCCCC3)O2)s1 (stereo not shown) | Alpha-carbonic anhydrase | CO2 hydration, inhibitor, stopped-flow kinetics |  |  |  | Ki | 0.0426 µM |
| CCCS(=O)(=O)Nc1ccc(F)c(C(=O)c2c[nH]c3ncc(Cl)cc23)c1F | iCell Cardiomyocytes (hiPSC-derived) | cellular impedance |  | concentration not given, 24 h | relative to: control | cell index | 97.8% |
| COc1ccc(-c2nc(N3CCOCC3)c3sc(CN(C)c4ncc(C(=O)NO)cn4)cc3n2)cn1 | human alphaherpesvirus 1 |  | primary human fibroblasts, K26 GFP | CC50 capped at 10.00 µM | relative to: CC50 over IC50 | selectivity index | < 0.15 |
| Cn1cc(-c2ccc(-c3cncc(Cl)c3N3CCC4(CCNC4=O)CC3)cc2)cn1 | COLO 205 | gene expression, microarray, refers to: HIST1H4H mRNA |  | concentration not given, 2 h | relative to: untreated cells | log2 fold change | -2.22 |
| CCc1cnn2c(NCc3ccc[n+]([O-])c3)cc(N3CCCC[C@H]3CCO)nc12 | NLRP3 inflammasome (mouse) |  | mouse BMDM | 10 µM |  | inhibition | 52.5% |
| COc1cc(CC(=O)O)ccc1O |  | binding, equilibrium dialysis LC-MS |  | 5 µM, thermostabilized A2AR-BRIL construct | relative to: no-protein control, direction not given | z-scored log2 fold change | -0.502 |
| NC(=O)c1cnc2[nH]ccc2c1N[C@@H]1[C@@H]2CC3C[C@H]1C[C@@](O)(C3)C2 |  | CD8+ CD28+ naive T cells, flow cytometry | Caucasian humans, peripheral blood | 200 mg single dose | relative to: baseline | percent change | -1.2% |
| O=c1sn(-c2cccc3ccccc23)c(=O)n1Cc1ccccc1 | NLRP3 inflammasome (mouse) |  | mouse BMDM | 10 µM |  | inhibition | 37.9% |
| O=C(Nc1ccc([N+](=O)[O-])cc1Cl)c1cc(Cl)ccc1O | human alphaherpesvirus 1 |  | primary human fibroblasts, K26 GFP | CC50 capped at 10.00 µM | relative to: CC50 over IC50 | selectivity index | > 27 |
| O=C(O)CCn1nnc(-c2ccccc2)n1 | Ubiquitin carboxyl-terminal hydrolase 49, ZnF-UBD domain (USP49, Homo sapiens, UniProt Q70CQ1) |  |  |  |  | Kd | > 1000 µM |
| O=c1[nH]c(=O)c2ncn([C@@H]3O[C@H](COP(=O)(O)O)[C@@H](O)[C@H]3O)c2[nH]1 |  | binding, equilibrium dialysis LC-MS |  | 5 µM, thermostabilized A2AR-BRIL construct | relative to: no-protein control, direction not given | z-scored log2 fold change | 0.186 |
| OC(CCN1CCCCC1)(c1ccccc1)C1CC2C=CC1C2 (stereo not shown) |  | resting-state EEG | healthy elderly humans | oral, 4 mg, eyes open, LS mean |  | EEG power, beta, Pz-O1 | 6.1 µV² |
| CCCCC(=O)OCC(=O)[C@]1(O)Cc2c(O)c3c(c(O)c2[C@@H](O[C@H]2C[C@H](NC(=O)C(F)(F)F)[C@H](O)[C@H](C)O2)C1)C(=O)c1c(OC)cccc1C3=O | NLRP3 inflammasome (mouse) |  | mouse BMDM | 10 µM |  | inhibition | 22.1% |
| Cn1cc(-c2ccc3nnc(Sc4ccc5ncccc5c4)n3n2)cn1 | iCell Cardiomyocytes (hiPSC-derived) | xCELLigence Cardio impedance |  | concentration not given, 2 h | relative to: control | beat amplitude | 99.8% |
| O=C(O)COP(=O)(O)O |  | binding, equilibrium dialysis LC-MS |  | 5 µM, thermostabilized A2AR-BRIL construct | relative to: no-protein control, direction not given | z-scored log2 fold change | 0.455 |
| CCN(CC)CCNC(=O)c1c(C)[nH]c(/C=C2\C(=O)Nc3ccc(F)cc32)c1C | NLRP3 inflammasome (mouse) |  | mouse BMDM | 10 µM |  | inhibition | -8.48% |
| N[C@H](CCSSCC[C@@H](N)C(=O)O)C(=O)O (racemic) |  | binding, equilibrium dialysis LC-MS |  | 5 µM, thermostabilized A2AR-BRIL construct | relative to: no-protein control, direction not given | z-scored log2 fold change | 0.22 |
| CCn1c(=O)c(-c2cc[nH]n2)cc2c(C)nc(N)nc21 | NLRP3 inflammasome (mouse) |  | mouse BMDM | 10 µM |  | inhibition | 26.6% |
| Cc1ccc(F)c(NC(=O)Nc2ccc(-c3cccc4[nH]nc(N)c34)cc2)c1 | iCell Cardiomyocytes (hiPSC-derived) | cellular impedance |  | concentration not given, 24 h | relative to: control | cell index | 100% |
| O=C(O)Cc1ccccc1O |  | binding, equilibrium dialysis LC-MS |  | 5 µM, thermostabilized A2AR-BRIL construct | relative to: no-protein control, direction not given | z-scored log2 fold change | -0.184 |
| CN1CCN(c2ccc3nc(-c4c(N)c5c(F)cccc5[nH]c4=O)[nH]c3c2)CC1 | iCell Cardiomyocytes (hiPSC-derived) | cellular impedance |  | concentration not given, 24 h | relative to: control | cell index | 106% |
| O=Cc1cc(O)ccc1O |  | binding, equilibrium dialysis LC-MS |  | 5 µM, thermostabilized A2AR-BRIL construct | relative to: no-protein control, direction not given | z-scored log2 fold change | 0.365 |
| CC1CCCCC1CC(=O)Nc1nnc(S(N)(=O)=O)s1 (stereo not shown) | Alpha-carbonic anhydrase | CO2 hydration, inhibitor, stopped-flow kinetics |  |  |  | Ki | 0.0091 µM |
